# Experimental data of several laboratories.
# Parts stem from different laboratories: compare values within a part only. Changes are numbered by the printed parent chain.

# Series 1
# Target: UBE2Z UBC core domain (UniProt Q9H832)
# Method: yeast two-hybrid
# Matrix: yeast
# Setting: mostly zero background
# Reference: not given
# Direction: higher = stronger interaction
# B1: RNF112 RING domain (UniProt Q9ULX5); chain QPMAPRELPTCSICLERLRDPISLDCGHDFCIRCFSTHRLPGCEPPCCPECRKICKQKRGLR
# B2: TRIM35 RING domain (UniProt Q9UPQ4); chain PSRSFKEELLCAVCYDPFRDAVTLRCGHNFCRGCVSRCWEVQVSPTCPVCKDRASPADLRT
# B3: RNF175 RING domain (UniProt Q8N4F7); chain LPTRSLSDNICAVCGQKIIVELDEEGLIENTYQLSCNHVFHEFCIRGWCIVGKKQTCPYCKEKVDLKRMIS
# B4: MSL2 RING domain (UniProt Q9HCI7); chain LLPYFRQSLSCCVCGHLLQDPIAPTNSTCQHYVCKTCKGKKMMMKPSCSWCKDYEQFEENKQ
# B5: TRIM15 RING domain (UniProt Q9C019); chain SLKVVHELPACTLCAGPLEDAVTIPCGHTFCRLCLPALSQMGAQSSGKILLCPLCQEEEQAETPMA
# B6: ANKIB1 RING domain (UniProt Q9P2G1); chain LSPGDLDTSLCDICMCSISVFEDPVDMPCGHDFCRGCWESFLNLKIQEGEAHNIFCPAYDCFQLVPVDIIE
# B7: RNF14 RING domain (UniProt Q9UBS8); chain IKCFNSKLFLCSICFCEKLGSECMYFLECRHVYCKACLKDYFEIQIRDGQVQCLNCPEPKCPSVATPGQVK
# B8: RNF43 RING domain (UniProt Q68DV7); chain SGSSCSSAPVCAICLEEFSEGQELRVISCLHEFHRNCVDPWLHQHRTCPLCMFNITEGDSFS
# B9: TRIM3 RING domain (UniProt O75382); chain VQPMDKQFLVCSICLDRYQCPKVLPCLHTFCERCLQNYIPAQSLTLSCPVCRQTSILPEQGV
# B10: PEX2 RING domain (UniProt P28328); chain DNTLATSGKECALCGEWPTMPHTIGCEHIFCYFCAKSSFLFDVYFTCPKCGTEVHSLQPLK
# B11: RNF4 RING domain (UniProt P78317); chain TGLRPSGTVSCPICMDGYSEIVQNGRLIVSTECGHVFCSQCLRDSLKNANTCPTCRKKINHKRYHP
# B12: PHF7 RING domain (UniProt Q9BWX1); chain IQHGHVGEESCILCCEDLSQQSVENIQSPCCSQAIYHRKCIQKYAHTSAKHFFKCPQCNNRKEFPQEML
# Target sequence (chain): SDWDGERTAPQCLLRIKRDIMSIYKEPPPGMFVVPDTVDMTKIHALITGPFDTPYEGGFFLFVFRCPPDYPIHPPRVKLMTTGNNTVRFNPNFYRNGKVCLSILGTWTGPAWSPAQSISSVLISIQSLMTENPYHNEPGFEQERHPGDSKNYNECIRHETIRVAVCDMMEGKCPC
Molecule,lacZ reporter activity
B1 (RNF112 RING domain),0
KIKDLNEHIVCCLCAGYFVDATTITECLHTFCKSCIVKYLQTSKYCPMCNIKIHETQPLL (PCGF1 RING domain (UniProt Q9BSM1)),0
B2 (TRIM35 RING domain),0
B3 (RNF175 RING domain),0
B4 (MSL2 RING domain),0
LKQVSIRENCCSLCCDEVADTQLKPCGHSDLCMDCALQLETCPLCRKEIVSRIRQI (RSPRY1 RING domain (UniProt Q96DX4)),0
B5 (TRIM15 RING domain),0
B6 (ANKIB1 RING domain),0
B7 (RNF14 RING domain),0
B8 (RNF43 RING domain),0
B9 (TRIM3 RING domain),0
B10 (PEX2 RING domain),0
B11 (RNF4 RING domain),3480
B12 (PHF7 RING domain),0

# Series 2
# Target: CCND2, cyclin fold, Cln2 fusion (human)
# Method: yeast growth competition, sequencing
# Matrix: yeast
# Setting: weak parent motif
# Reference: not given
# Direction: higher = stronger binding
# Parent: CDKN1A docking peptide (human); SKACRRLFGPVDS
Substitution,normalised enrichment score
K2A,0.401
L7M,0.287
G9Q,0.534
R6V,0.619
C4T,0.169
R6D,0.0672
V11H,0.011
C4E,-0.0946
K2R,0.269
A3T,0.54
R6C,0.634

# Series 3
# Target: RNA binding protein fox-1 homolog 2, RRM domain, GST-SBP tag (RBFOX2, Homo sapiens, UniProt O43251-10, residues 100-194)
# Method: RNA Bind-n-Seq
# Form: RNA
# Matrix: in vitro
# Tested at: 365 nM
# Setting: natural RNA segment, single round, ends assumed
# Reference: no-protein control
# Direction: higher = stronger binding
# All sequences stand within: GGGAGUUCUACAGUCCGACGAUC … UGGAAUUCUCGGGUGCCAA
# Construct (chain): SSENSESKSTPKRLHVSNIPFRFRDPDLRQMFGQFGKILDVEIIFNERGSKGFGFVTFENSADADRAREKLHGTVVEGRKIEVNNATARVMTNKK
Sequence,RBNS enrichment (R)
AUGUUAAAAUAGCAUACUGUGUAUGUUUUAUCCAAAUUCAUUCAUGAAUCUUUCAUAUAUAUAUGCAUAUAUAUACAUAUAUUGUAGAGUGUGAAUAUUCUUAUUUAAAG,0.49
CGCGGUAUGUUGAGUGUUUCCACUACAGAGCAUCAUUUCCCAUGUGCCACUUGUAAAUGUUUUGCAGCCAGCACCUGAGGACUUCUUAUACAGUCAUAAAGCCACCUAGA,0.603
CCCUCCUGGGCCUUCUGCUGGAUGGGCACCUGGGGGGUUCUGGUUUUUACUUUUUUAAUGUAAGUCUCAGUCUUUGUAAUUAAUUAUUGAAUUGUGAGAACAUUUUUGAA,0.625
AAAGUUAACUUAUGUGACUUGGCAGUUAUUCUAUACCAUUUCCUGUCCAUUAAAAUUUUUAAAGGAACGGUUGUAUUUUAUUAUGUUUUAUGUGACCUUUUGGCCUUUAA,0.615
CAUACCCUCAUGGCUUCACAGUCAAGGUCAGCAGGAAGCUCAUUGGUCACCUUCAUGGUGACCUCUCCAUUAUUCUGUCUCACUUGGAACCAUUUUCAGUUUAUUUACUA,0.277
ACUGUCCAGCAUUUUUCUGUCGUUUCCCCCCCACCCCAAAUCCUUUUUUUCUCUUCUUUUUUAAAAGAUAGGUAGGGUCUUGCUAGAUAUCUCUAGCAAGCCUGUUUCUU,0.922
UUCCUAGCAUAUGUGAGCGCUCCAUUGGCUCAGCACAGACACUAAUAAAGACAUGAUUGGCCCCAGACUGGCUUUGCUUGUUUUGUUCCUCCAGGAUGUUUCCUUGAGAC,0.677
GGCCUGUGUGAGGCAGAACUGGGACCCUUGAUUCCCAGAUUGGGAGUCAGCCAAGGACACUGGGGCUGAAUGAAAUGCCCAUUCUUCAGGCAUUUCUACCAUAAUAUUGG,0.415
CAGUGCUGGGAGCCAAAAAACUGUUGACGGUUUUUUGUGCAGCUCAAGAAAACUUUGAAAAGAACAUGCUUUAACUGAAGCAUUGGACUCUGCAGCUUUCUGUGUAAGGC,0.341
UGAGUGUUUCCACUCAAAAUAUGUCAACUUAAAAAAAAAUAGGCCCUUUCAUAAAAACCAAACUGUAGCAAGAUGCAAAUGCAUGGCAAAUCCUGUCGGUCUCCAGUUGG,0.971
UUUUCCUCAGGCUCCAACAACUGUGCUUAUACCAAGCAGAUCCUCAUCCUCCAUAUAAUCAUCUUUGUUAUUCGUGGGGGUUUAAUUACAUUACAAGUGGCCAAAACCCC,0.268
GGUUUUGGUUUGGCUUCUUUUAGUCAGGCUUUCUGAACAUUGAGAUAUCCUGAACUUAGAGCUCUUCAAUCCUAAGAUUUUCAUGAAAAGCCUCUCACUUGAACCCAAAC,0.605

# Series 4
# Target: RING finger protein unkempt homolog, zinc fingers 1-6, GST-SBP tag (UNK, Homo sapiens, UniProt Q9C0B0, residues 30-357)
# Sequence of UniProt Q9C0B0 (30-357, looked up): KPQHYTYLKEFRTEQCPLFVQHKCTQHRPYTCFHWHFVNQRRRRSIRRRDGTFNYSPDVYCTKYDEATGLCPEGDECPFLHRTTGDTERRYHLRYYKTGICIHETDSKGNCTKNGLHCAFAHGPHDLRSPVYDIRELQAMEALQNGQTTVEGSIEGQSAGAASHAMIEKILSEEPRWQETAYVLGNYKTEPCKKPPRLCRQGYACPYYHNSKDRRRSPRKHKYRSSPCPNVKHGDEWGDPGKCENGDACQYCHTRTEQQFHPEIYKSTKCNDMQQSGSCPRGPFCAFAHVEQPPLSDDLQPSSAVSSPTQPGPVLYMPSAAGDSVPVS
# Method: RNA Bind-n-Seq
# Form: RNA
# Matrix: in vitro
# Tested at: not given
# Setting: RNA with constant flanks, human-mouse chimeric sites, ends assumed
# Reference: input RNA pool
# Direction: higher = stronger binding
# All sequences stand within: GGGAGUUCUACAGUCCGACGAUC … CAACAGAGGAUUGAGCAUCA
Sequence,bound/input enrichment [ratio]
CUGGCACUCUAUCAGAUAUAUUAAUUUUUUAAUGUAGAUGUAAUUUUAAAAAUGAAUGGCUACUUUACACGUUUAACUAGGCUCUUACUACAUAUGUGUACAUAUGUAUAUAUAUAUAUA,5.17
CCCUCCCCGGGCCACCCGCCCGCCCAAGCUCCCCGCCGAGAUCCAGGUUUCUUCUGUUUUCAUAGCAAAUAAGAAAAAUGUUCUACGCACAUUUUGUCCUCAGUAAACGAGGGCCUCUGG,0.843
GGCCUGGGACCGUCCUGGGCUAGUACAAAUAGCGGCAGUGGAGGCUCAGAGGAAAGUUUUGUUAGUGGAGGCAGUGGUAGAGGCCGUCAUGUACGGUCCUUUACUCGAUAGAUGUGUUCU,0.71
UCCCAAAUUAUAAGGCAAGAAGGAGCCUUGAGACAAACACUCCACACACAGGGAAGGCGAUAACAUUGUACAUUGGUUUACAUUUUUCUCCUUGAAUGAUUUUUCUAGAGGUCAUAGUGC,0.461
CACGUGUCUGCAGUACUUGAUGUGGACUACUCUCCCACUGGGAAGGAAUUUGUGUCUGCCAGCUUUGAUAAGUCUAUUCGAAUCUUUCCUGUGGACAAGAGCCGAAGCAGGGAAGUGUAU,0.254
AGAGAUAAGACAUCCAGGAACAUGCGAGGGUCACGGAUGAAUGGACUGCCUAGCCCCACUCACAGCGCCCACUGUAGCUUCUACCGAACCAGAACCUUGCAGGCACUGAGUAAUGAGAAG,0.173
UAUAAUAAUCAUGAAAUUCGUUCCGGGAAGCACAUUGGUGUCUGCAUCUCAGUUGCCAACAAUAGGCUUUUUGUGGGCUCUAUUCCUAAGAGUAAAACCAAGGAGCAGAUUCUUGAAGAA,0.695
GGCCUGGACCUUCCUGGGGCUAGUACAAAUAGCGGCAGUGGAGGCUCGAGAGGAAAGUUUGUUAGUGGAGGCAGUGGUAGAGGCCGUCAUGUACGGUCUUUACACGAAUAGAUGUGUUCU,0.327
GAUCCACAGUGGUCUGAGGAGCAACUCAUUGCUGCAAAAUUUUGCUUUGCUGGCCUUCUUAUAGGCCAGACUGAAGUGGACAUCAUGAGUCAUGCCACACAAGCUAUUUUUGAAAUUCUG,0.17
CUCAGAGAUGUGGCAUAUCAAUAUGUGAAAAAGGGGGCUCGUAUAUUUGUGGAAGGGAAAGUGGACUAUGGUGAAUACAUGGAUAAAAACAAUGUGAGGCGGCAAGCAACAACAAUCAUA,0.385
UGUGCAUAUGAUGCUUGAGAUGGUUUUUGCAGAUGCAGAAAUCGCUGCAAGGUAAUCACAAUAGAUAAAAGUGGUAUUUUAAACCUUUGAAAGGAAUGGAUGUAACUGUACCUUGGUACA,0.347
